# Experimental data pooled from the literature.
# Parts stem from different laboratories: compare values within a part only.

# Block 1
# Target: Hepatocyte nuclear factor 3-alpha (Foxa1, Mus musculus, UniProt P35582, residues 1-468, full length assumed)
# Technique: EMSA with sequencing
# Form: double-stranded DNA, one strand shown
# Matrix: in vitro
# Tested at: 10 and 20 nM
# Notes: whole designed probe, mean of two concentrations, ends assumed
# Baseline: negative control set to 0
# Direction: higher = stronger binding
# All sequences stand within: GTGAGCGGTGCCCATTGATGGGGAAC … TTTCACTGGGATCGTGGGGAC
# Target sequence (chain): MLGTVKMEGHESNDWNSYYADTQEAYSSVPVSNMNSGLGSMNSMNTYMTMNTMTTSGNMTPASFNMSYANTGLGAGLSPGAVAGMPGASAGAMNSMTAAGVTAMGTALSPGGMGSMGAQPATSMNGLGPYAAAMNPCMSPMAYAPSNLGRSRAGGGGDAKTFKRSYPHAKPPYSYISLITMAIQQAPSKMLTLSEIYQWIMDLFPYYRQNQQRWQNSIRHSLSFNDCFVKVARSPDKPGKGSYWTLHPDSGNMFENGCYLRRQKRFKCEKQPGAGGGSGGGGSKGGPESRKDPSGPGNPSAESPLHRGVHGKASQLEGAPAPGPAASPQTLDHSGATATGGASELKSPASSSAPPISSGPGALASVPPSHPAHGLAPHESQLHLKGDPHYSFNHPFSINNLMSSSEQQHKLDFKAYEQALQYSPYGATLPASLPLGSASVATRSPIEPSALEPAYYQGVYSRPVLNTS
Strand,normalised bound fraction
ATCTTCCCCCTCTTCCTTGCCCCACCAGCTCACCTTCCCGGGTATCTGCAAATAAGTATTTATTTTCAAGCCGGCATTCGTTAACCCTCTTCACGCGCATACTGCACATTGGTCTGGATCTAACATGGTCCTTTGGCGACGCCAGGCTCCGGGAGAGCAAAGCACCGTGTCAGGGCCATGATCCGGGGTGGCC,0.141 ratio
AAAACCAAAAACCAAAGCTTATTCACTCTTAATCTAAGTAAGCAAGTTTGGATAGACCCCCACTAAGTATGAGCATAGTCTTTAATGCTACAATGTAAACAAATATACTTATGTCATATAAACTACTTTATTATTCTGGCAAGTTGGGAACCATTGATATAGGATTTGTGAGACTCAATAATAATAGACTTTT,0.533 ratio
CAGCCTGCAGTGCGCTCAGTTAAACAATTCCAAATCAAGGAATTTTGTCTGATACAAGGAATTTGGGGTGTGTTTTCCTAACATGCACCCTGGGTAAATAGACTGCATTTCCGGGGGGGGGGCTGACCCAGCTGAAGCCAATATGCATTGCGGCCACAAGGTGGCGCGTCTGGGCCTGGCAAACCCCTGTGCT,0.222 ratio
ACAACATCAGGTCATTATTTATCCACTTGTCCTTTTTTTTTTTATCATTCCTTTGAACTGCCTGCATTTGCTTATCGTGATATTTCTCAGTCTGTAATCTGCCCGAGTAGCTGTTCTATTTCTCTAAATAGAGTCTTAGGTCATTTTATTATCCAGAATTGTAAGTCATCAGAATGCACCCATCTGTTGTCCT,0.0601 ratio
ATCTTCCCCCTCTTCCTTGCCCCACCAGCTCACCTTCCCGGGTTATTTGCAGATAGGAAAATAAATAAAGCCGGCATTCGTTAACCCTCTTCTGGCACATCTCGAGGTTTGCTCTGGATGAATCATGGTCCTTTGGCGACGCCAGGCTCCGGGAGAGCAAAGCACCGTGTCAGGGCCATGATCCGGGGTGGCC,0.34 ratio

# Block 2
# Target: Interferon regulatory factor 7, full length, phosphomimetic (IRF7, Homo sapiens, UniProt Q92985, residues 1-503, S471D/S472D/S475D/S476D/S477D/S483D/S484D/S487D)
# Technique: protein-binding microarray
# Form: double-stranded DNA, one strand shown
# Matrix: in vitro
# Tested at: 2200 nM top
# Notes: 60-bp whole probe
# Added: salmon DNA 0.4 mg/ml
# Baseline: random background probes
# Direction: higher = stronger binding
# All sequences stand within: GCCTAGCAC … GTCTTGATTCGCTTGACGCTGCTG
# Residues (chain): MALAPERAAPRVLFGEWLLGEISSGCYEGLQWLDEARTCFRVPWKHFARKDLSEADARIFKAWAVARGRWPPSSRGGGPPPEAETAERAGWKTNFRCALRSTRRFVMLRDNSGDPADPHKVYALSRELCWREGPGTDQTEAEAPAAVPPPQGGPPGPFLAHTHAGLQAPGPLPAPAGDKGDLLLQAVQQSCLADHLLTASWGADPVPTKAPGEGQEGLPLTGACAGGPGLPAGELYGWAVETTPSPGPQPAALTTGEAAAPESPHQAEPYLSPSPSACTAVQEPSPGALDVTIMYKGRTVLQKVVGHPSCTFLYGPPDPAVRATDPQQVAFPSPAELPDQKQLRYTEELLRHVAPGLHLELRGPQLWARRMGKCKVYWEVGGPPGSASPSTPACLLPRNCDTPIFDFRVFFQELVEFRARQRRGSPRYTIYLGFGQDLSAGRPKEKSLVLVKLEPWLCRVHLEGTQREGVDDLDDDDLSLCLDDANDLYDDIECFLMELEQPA
Strand,fitted relative affinity
TCATTGGTTGAACATGAACTGTGCTAG,0.351 z-score
TTAGGTCTCCGTATCGGTTAGTGCTAG,0.582 z-score
TTAGGTTTCGACTTTGGGTTAGTGCTA,5.52 z-score
GACGATATCGGGTTTCGAGATGTGCTA,1.89 z-score
TTAGGACTTGACTTTCGGTTAGTGCTA,5.68 z-score
GACGGTATACTACTGCTGACGTGCTAG,0.422 z-score
TTAGGACTGGACGCTGGGTTAGTGCTA,-0.735 z-score
TTAGGACTGGGGTTTCGGGTAGTGCTA,1.77 z-score
TTAGAACTGGGTATCGATTAGTGCTAG,-0.151 z-score
GACGGTTTCCTTCTGCTGACGTGCTAG,3.19 z-score
TTAGGTTTCCATATCCTTTAGTGCTAG,2.79 z-score
TCATCTGTCATTTTCTCACTGTGCTAG,2.03 z-score
CTAGGTTTCGGTCTCGGTTAGTGCTAG,6.74 z-score
GACGAACTGCTTTTCCTGACGTGCTAG,0.832 z-score
TCAATTCTCGGGACTCACACTGTGCTA,0.863 z-score
TTAGATTTCGGATATCGATTAGTGCTA,1.41 z-score
TCAGGTTTCCAATCAGCACTGTGCTAG,2.26 z-score
TCTGTCCTGATAGCCCTGGCGTGCTAG,0.718 z-score
AATGGAACAAATATGTTTATGTGCTAG,-0.348 z-score

# Block 3
# Target: RNA binding protein fox-1 homolog 2, RRM domain, GST-SBP tag (RBFOX2, Homo sapiens, UniProt O43251-10, residues 100-194)
# Technique: RNA Bind-n-Seq
# Form: RNA
# Matrix: in vitro
# Tested at: 365 nM
# Notes: natural RNA segment, single round, ends assumed
# Baseline: no-protein control
# Direction: higher = stronger binding
# All sequences stand within: GGGAGUUCUACAGUCCGACGAUC … UGGAAUUCUCGGGUGCCAA
# Target sequence (chain): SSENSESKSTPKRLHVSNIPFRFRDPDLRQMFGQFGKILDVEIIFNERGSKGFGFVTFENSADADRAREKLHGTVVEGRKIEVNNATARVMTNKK
Strand,RBNS enrichment (R)
CUUUGUCCCAUUUCUAAAGGCCUCUUCCUUGCUGUGUCAUACCAGGCCGCCCCAGCCUCUGAGCCCCUGGGACUGCUGCUUCUUAACCCCAGUAAGCCACUGCCACACGU,0.332
AGUGGCUUCUGUCUUUAUGUCUGUUGGCAUAUCAAAAUGGUUUCUGUUCCUAGAAAAGUAAUAACAUAUGCUUAUCUUUAUUCUUUUUCCAGGUGAUUUUGUUUUCAAAU,0.598
UCUGUAUUAGAAGAAAAUAAGGGUAAAAUCAGGCUGAACUGCAUGUAUAUGGCUCCACUGUGGCUUGUGACACUUUUAAAAUCAUCCGUAUGUCAGUGUAUCUGGAUACA,26.7
UUAAAAACAAGGACAAUAAAUAUUCAAAAUGCAUCCCUAAUUACUACAUUUGACCACGAUCUGUGCUUAUCUGUGCACUGACUGUGAUCUGUGAGGUUGGCUCUGUUGUG,0.354
GCAAUAACUUAGUAGUACUUGCUUAGUUAUAAAUAACUGGAUCUUUCUGCUGACAACUUAGGUUGUAUGAGUUAUGCUUAAAAGCUUUAAAUCGGAUGUUUCCUGUACCU,0.237
CUCCAAAUACCAUUCAAGUGCCUCUUGUUGAAAGAUUCCUUCAUGGUGGAAGGGGGUGCAUGUAUGUGUUAGUGUUUGUGUGUGUGUGUGUGUCUGUCUGUUCGUCUGUC,11.4
CACUCUCUCCACCUUUAUUUGCUUCUGAGUUCUUGUUUUUGAGCAAUAAACAGAAAGUCACCACUUGUAACUGAGCUGGUGAGUCUGGAAAAAUGGGUCUCAAAGUGUUG,0.35
AUACUGUGACUUCACCUAGAUCUUCUACCAAGCUGAAGACCCUGCUGGCUCUGAAACAAUCCUUGCAGUUACUCCCCAGCUGUUCGUCUGGACAGCUCAUUCAAGUGGAU,0.27

# Block 4
# Target: Histone acetyltransferase KAT6A, both winged helices, GST fusion (KAT6A, Homo sapiens, UniProt Q92794, residues 1-181)
# Technique: protein binding microarray
# Form: double-stranded DNA, one strand shown
# Matrix: in vitro
# Tested at: not given
# Notes: 8-mer, flanks averaged, mean of 2 arrays, mostly near background
# Baseline: not given
# Direction: higher = stronger binding
# Construct (chain): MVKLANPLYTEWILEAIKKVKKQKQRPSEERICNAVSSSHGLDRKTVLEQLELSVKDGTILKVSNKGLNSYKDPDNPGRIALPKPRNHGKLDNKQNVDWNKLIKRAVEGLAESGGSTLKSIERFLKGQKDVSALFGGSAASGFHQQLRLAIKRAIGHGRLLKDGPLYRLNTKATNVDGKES
Strand,E-score
ATTTCGTG,-0.116
AGATTGAC,0.0465
GATTGAAC,0.00432
CGAATTAG,-0.161
GCATCCGA,0.11
GCAAAGGA,-0.0266
AGCTTGAG,-0.159
GACTAGCC,-0.024
CCCTGGGA,-0.0816
CCAATTTC,-0.159
CCACTACA,-0.242
AACAAGCG,0.158
TCAATAGA,-0.19
CTGTACAG,-0.0146
CAATTACC,-0.0562
GCGTTGTA,0.183
GGGAAATA,-0.157
ATTTTGGG,-0.204
GGAAACGA,-0.0278
CCATATAG,-0.0488
AATCTTGG,-0.25
ACTTTTCA,-0.138
AGTCCAAT,-0.135
ACTTCATA,-0.024
AATGGATC,0.0501

# For quick reference, copied from above (block 4):
Strand,E-score
AATCTTGG,-0.25
CTGTACAG,-0.0146
CCATATAG,-0.0488
AATGGATC,0.0501
CCAATTTC,-0.159
GCAAAGGA,-0.0266
GGGAAATA,-0.157
ATTTCGTG,-0.116
